Measurements collected from several papers.
Lines come from different studies, so protocols differ. Numbers after ± are the reported error.
Target: Glucagon-like peptide 1 receptor (GLP1R, Homo sapiens, UniProt P43220)
UniProt P43220, sequence (whole entry, looked up): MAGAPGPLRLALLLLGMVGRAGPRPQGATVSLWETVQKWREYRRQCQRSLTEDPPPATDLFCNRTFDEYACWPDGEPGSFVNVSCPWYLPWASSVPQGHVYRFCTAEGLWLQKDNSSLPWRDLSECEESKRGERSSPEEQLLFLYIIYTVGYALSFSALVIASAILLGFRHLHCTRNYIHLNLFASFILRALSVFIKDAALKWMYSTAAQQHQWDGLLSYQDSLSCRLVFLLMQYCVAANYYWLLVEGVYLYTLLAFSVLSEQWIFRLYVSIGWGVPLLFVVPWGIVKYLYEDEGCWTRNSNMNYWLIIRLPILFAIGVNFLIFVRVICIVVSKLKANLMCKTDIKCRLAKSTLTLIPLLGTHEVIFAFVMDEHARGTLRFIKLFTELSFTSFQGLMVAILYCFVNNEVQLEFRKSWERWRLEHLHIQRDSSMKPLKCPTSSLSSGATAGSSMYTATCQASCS

Compound = CC[C@H](C)[C@H](NC(=O)[C@H](Cc1ccccc1)NC(=O)[C@H](CCC(=O)O)NC(=O)[C@H](CCCCN)NC(=O)[C@H](C)NC(=O)[C@H](C)NC(=O)[C@H](CCC(N)=O)NC(=O)CNC(=O)[C@H](CCC(=O)O)NC(=O)[C@H](CC(C)C)NC(=O)[C@H](Cc1ccc(O)cc1)NC(=O)[C@H](CO)NC(=O)[C@H](CO)NC(=O)[C@@H](NC(=O)[C@H](CC(=O)O)NC(=O)[C@H](CO)NC(=O)[C@@H](NC(=O)[C@H](Cc1ccccc1)NC(=O)[C@@H](NC(=O)CNC(=O)[C@H](Cc1ccc([N+](=O)[O-])cc1)NC(=O)[C@H](C)NC(=O)[C@@H](N)Cc1c[nH]cn1)[C@@H](C)O)[C@@H](C)O)C(C)C)C(=O)N[C@@H](C)C(=O)N[C@@H](Cc1c[nH]c2ccccc12)C(=O)N[C@@H](CC(C)C)C(=O)N[C@H](C(=O)N[C@@H](CCCCN)C(=O)NCC(=O)N[C@@H](CCCNC(=N)N)C(=O)NCC(=O)O)C(C)C; test = agonist; EC50 = 160 ± 50 nM
Compound = CC[C@H](C)[C@H](NC(=O)[C@H](CC(N)=O)NC(=O)[C@H](CC(N)=O)NC(=O)[C@H](CCCNC(=N)N)NC(=O)[C@H](CC(N)=O)NC(=O)[C@H](CCCNC(=N)N)NC(=O)[C@H](CCCCN)NC(=O)[C@@H](NC(=O)[C@H](CC(N)=O)NC(=O)[C@H](CCSC)NC(=O)[C@H](CC(C)C)NC(=O)[C@H](Cc1c[nH]c2ccccc12)NC(=O)[C@H](CS)NC(=O)[C@@H](NC(=O)[C@H](Cc1ccccc1)NC(=O)[C@H](CC(=O)O)NC(=O)[C@H](CCC(N)=O)NC(=O)[C@H](C)NC(=O)[C@H](CCCNC(=N)N)NC(=O)[C@H](CS)NC(=O)[C@H](CCC(=O)O)NC(=O)[C@H](CC(=O)O)NC(=O)[C@H](CC(C)C)NC(=O)[C@H](Cc1ccc(O)cc1)NC(=O)[C@H](CCCCN)NC(=O)[C@H](CO)NC(=O)[C@H](Cc1ccc(O)cc1)NC(=O)[C@H](CC(=O)O)NC(=O)[C@H](CO)NC(=O)[C@@H](NC(=O)[C@H](Cc1ccccc1)NC(=O)[C@@H](NC(=O)CNC(=O)[C@H](CCC(N)=O)NC(=O)[C@@H](CO)NC(=O)[C@@H](N)Cc1c[nH]cn1)[C@@H](C)O)[C@@H](C)O)C(C)C)[C@@H](C)O)C(=O)N[C@@H](C)C(N)=O; test = reporter gene, agonist, luciferase; EC50 = ~400 nM
Compound = CC[C@H](C)[C@H](NC(=O)[C@H](Cc1ccccc1)NC(=O)[C@H](CCC(=O)O)NC(=O)[C@H](CCCCN)NC(=O)[C@H](C)NC(=O)[C@H](C)NC(=O)[C@H](CCC(N)=O)NC(=O)CNC(=O)[C@H](CCC(=O)O)NC(=O)[C@H](CC(C)C)NC(=O)[C@H](Cc1ccc(O)cc1)NC(=O)[C@H](CO)NC(=O)[C@H](CO)NC(=O)[C@@H](NC(=O)[C@H](CC(=O)O)NC(=O)[C@H](CO)NC(=O)[C@@H](NC(=O)[C@H](Cc1ccccc1)NC(=O)[C@@H](NC(=O)CNC(=O)[C@H](CCC(=O)O)NC(=O)[C@H](C)NC(=O)[C@@H](N)Cc1c[nH]cn1)[C@@H](C)O)[C@@H](C)O)C(C)C)C(=O)N[C@@H](C)C(=O)N[C@@H](Cc1c[nH]c2ccccc12)C(=O)N[C@@H](CC(C)C)C(=O)N[C@H](C(=O)N[C@@H](CCCNC(=N)N)C(=O)NCC(=O)N[C@@H](CCCNC(=N)N)C(N)=O)C(C)C; test = reporter gene, agonist, luciferase; EC50 = 4.1 nM
Compound = COc1ccc(-c2cc(C(F)(F)F)nc(NCc3ccccc3)n2)cc1; test = cAMP accumulation, positive allosteric modulator; test system = HEK-293T overexpressing GLP1R; setting = together with: EC20 GLP-1; EC50 = 20000 ± 21000 nM
Compound = CC[C@@H](C)[C@@H](NC(=O)[C@@H](C)NC(=O)[C@@H](CCC(=O)O)NC(=O)[C@H](NC(=O)[C@@H](CC(C)C)NC(=O)[C@@H](CCC(=O)O)NC(=O)CNC(=O)[C@@H](C)NC(=O)[C@@H](C)NC(=O)[C@@H](CC(C)C)NC(=O)[C@H](NC(=O)[C@@H](Cc1ccccc1)NC(=O)[C@@H](CC(C)C)NC(=O)[C@@H](CCC(=O)O)NC(=O)[C@@H](CC(C)C)NC(=O)[C@@H](Cc1ccccc1)NC(=O)[C@@H](C)NC(=O)[C@@H](CCCCN)NC(=O)CNC(=O)[C@H](N)CCCNC(=N)N)[C@H](C)CC)[C@H](C)CC)C(=O)N[C@H](CC(=O)O)C(=O)N[C@H](CCCNC(=N)N)C(=O)N[C@@H](C(=O)N[C@H](Cc1ccccc1)C(=O)N[C@@H](C(=O)NCC(=O)N[C@H](CCC(=O)O)C(=O)N[C@H](C)C(=O)N[C@H](Cc1c[nH]cn1)C(=O)O)[C@H](C)O)[C@H](C)O; test = reporter gene, agonist, luciferase; EC50 = 2200 nM
Compound = CC[C@H](C)[C@H](NC(=O)[C@H](Cc1ccccc1)NC(=O)[C@H](CCC(=O)O)NC(=O)[C@H](CCCCN)NC(=O)[C@H](C)NC(=O)[C@H](C)NC(=O)[C@H](CCC(N)=O)NC(=O)CNC(=O)[C@H](CCC(=O)O)NC(=O)[C@H](CC(C)C)NC(=O)[C@H](Cc1ccc(O)cc1)NC(=O)[C@H](CO)NC(=O)[C@H](CO)NC(=O)C(C)(C)NC(=O)[C@H](CC(=O)O)NC(=O)[C@H](CO)NC(=O)[C@@H](NC(=O)[C@H](Cc1ccccc1)NC(=O)[C@@H](NC(=O)CNC(=O)[C@H](CCC(=O)O)NC(=O)[C@H](C)NC(=O)[C@@H](N)Cc1c[nH]cn1)[C@@H](C)O)[C@@H](C)O)C(=O)N[C@@H](C)C(=O)N[C@@H](Cc1c[nH]c2ccccc12)C(=O)N[C@@H](CC(C)C)C(=O)N[C@H](C(=O)N[C@@H](CCCCN)C(=O)NCC(=O)N[C@@H](CCCNC(=N)N)C(=O)NCC(N)=O)C(C)C; test = cAMP, agonist, luciferase; EC50 = 0.158 nM
Compound = COc1ccccc1-c1cc(C(F)(F)F)nc(S(=O)(=O)CCCC(=O)Nc2ccn(Cc3ccc(C)cc3)n2)n1; test = cAMP, agonist; EC50 = 3700 nM
Compound = CC[C@H](C)[C@H](NC(=O)[C@H](Cc1ccccc1)NC(=O)[C@H](CCC(=O)O)NC(=O)[C@H](CCCCN)NC(=O)[C@H](C)NC(=O)[C@H](C)NC(=O)[C@H](CCC(N)=O)NC(=O)CNC(=O)[C@H](CCC(=O)O)NC(=O)[C@H](CC(C)C)NC(=O)[C@H](Cc1ccc(O)cc1)NC(=O)[C@H](CO)NC(=O)[C@H](CO)NC(=O)[C@@H](NC(=O)[C@H](CC(=O)O)NC(=O)[C@H](CO)NC(=O)[C@@H](NC(=O)[C@H](Cc1ccccc1)NC(=O)[C@@H](NC(=O)CNC(=O)[C@@H](N)CCC(=O)O)[C@@H](C)O)[C@@H](C)O)C(C)C)C(=O)N[C@@H](C)C(=O)N[C@@H](Cc1c[nH]c2ccccc12)C(=O)N[C@@H](CC(C)C)C(=O)N[C@H](C(=O)N[C@@H](CCCCN)C(=O)NCC(=O)N[C@@H](CCCNC(=N)N)C(N)=O)C(C)C; test = cAMP, agonist; EC50 = 1120 nM
